# Published values pooled from the literature.
# Each numbered part is a random draw from the data of one study; scales do not carry over between parts. Changes are numbered by the printed parent chain.

# Set 1
# Target: Sal-like protein 4, full length isoform B (SALL4, Homo sapiens, UniProt Q9UJQ4-2, residues 1-616)
# Technique: universal PBM
# Form: double-stranded DNA, one strand shown
# Matrix: in vitro
# Concentration: not given
# Setting: 8-mer, flanks averaged, mean of replicates
# Reading: higher = stronger binding
# Residues (chain): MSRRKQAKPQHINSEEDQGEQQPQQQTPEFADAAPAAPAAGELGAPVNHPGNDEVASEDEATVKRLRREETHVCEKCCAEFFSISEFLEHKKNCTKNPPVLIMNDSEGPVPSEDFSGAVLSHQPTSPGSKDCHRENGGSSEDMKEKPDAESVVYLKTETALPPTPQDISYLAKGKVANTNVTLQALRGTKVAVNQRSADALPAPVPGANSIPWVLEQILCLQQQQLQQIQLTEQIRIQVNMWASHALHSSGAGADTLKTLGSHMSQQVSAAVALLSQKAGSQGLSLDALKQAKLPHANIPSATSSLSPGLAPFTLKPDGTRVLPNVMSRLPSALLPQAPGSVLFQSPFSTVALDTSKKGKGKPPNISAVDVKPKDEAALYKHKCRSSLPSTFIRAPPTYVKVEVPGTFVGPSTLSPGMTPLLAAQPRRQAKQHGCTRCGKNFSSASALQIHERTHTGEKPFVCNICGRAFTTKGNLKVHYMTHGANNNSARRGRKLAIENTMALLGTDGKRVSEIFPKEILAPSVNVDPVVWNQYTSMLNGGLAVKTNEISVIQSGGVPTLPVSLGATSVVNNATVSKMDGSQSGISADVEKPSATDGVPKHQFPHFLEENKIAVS
Strand,E-score
TATTCTGA,0.133
GAGCCGAA,-0.0662
CTGAATGA,0.0695
CACCAACA,-0.191
GGCCCTTA,-0.131
GCCAGGGC,-0.343
ATGTTGGA,0.0573
GAGACCAC,-0.259
AGCAGTTG,-0.256
ACCTAGCA,0.0199
AGCCCTAC,-0.112
GCTTGTCA,0.0143
CGGTACGA,-0.192
AGTAGGGC,-0.0508
CGAAACAA,0.0322
GCCGCATA,0.0863
AACTCACA,0.137
CGGGCGAG,-0.292
CATTTTAA,0.268
AGCTAGCC,-0.164
CCCCTTTC,-0.106
CAATTGGA,0.0291

# Set 2
# Target: Interferon regulatory factor 5, full length, phosphomimetic (IRF5, Homo sapiens, UniProt Q13568-2, residues 1-514, K96S/S451D/S453D/S456D/S462D)
# Technique: protein-binding microarray
# Form: double-stranded DNA, one strand shown
# Matrix: in vitro
# Concentration: 250 nM
# Setting: 60-bp whole probe
# Added: salmon DNA 0.4 mg/ml
# Reference: random background probes
# Reading: higher = stronger binding
# Constant ends, left off below: GCCTAGCAC … GTCTTGATTCGCTTGACGCTGCTG
Strand,log fluorescence
CAGATTTGGCATATCTATTTGTGCTAG,0.395 z-score
TACAATTTGCTTTAGTCATTGTGCTAG,0.403 z-score
TTATATCTCAGTATCGATTAGTGCTAG,7.29 z-score
TTAGATTTAAGTCTCGATTAGTGCTAG,1.07 z-score
TTAGATATCAGTACCGATTAGTGCTAG,1.3 z-score
GACGCTATCGACTTTCGGGACGTGCTA,6.9 z-score
TTAGATCTCAGTGTCGATTAGTGCTAG,0.572 z-score
CATTATTTCAATGCAAGGTGGTGCTAG,0.713 z-score
ATGCATTGTTATTTGTCAATGTGCTAG,0.676 z-score
GACGGTCGCCTACTGCTGACGTGCTAG,-0.44 z-score
TACGATATCGGGTTTCGAGACGTGCTA,3.54 z-score
TCATGAGTCACTTCTGGTACTGTGCTA,-0.107 z-score
TTAGGTATCGACATTCGGTTAGTGCTA,3.6 z-score
TAAGATATCGGGACTGGATTAGTGCTA,0.658 z-score
GACGGTCTCCATATCCTGACGTGCTAG,-0.0267 z-score
TTAGGACTGCTTTTCCCTTAGTGCTAG,0.231 z-score
TTAGATCTGGGGTTTCGATTAGTGCTA,5.24 z-score

# Set 3
# Target: FOSL2, bZIP domain (human)
# Technique: DHFR protein complementation
# Matrix: yeast
# Setting: single substitutions, most at no-binding floor
# Reference: wild-type JUN-FOS pair
# Reading: higher = stronger binding
# Parent: JUN, bZIP domain (human); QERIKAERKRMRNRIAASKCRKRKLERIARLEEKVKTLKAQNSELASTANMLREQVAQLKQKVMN; partner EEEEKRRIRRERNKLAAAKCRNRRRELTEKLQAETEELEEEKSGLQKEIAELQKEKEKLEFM
Variant,binding fitness [natural log]
A29K,-0.0562
Q41W,-0.859
K34N,-0.11
T48V,0.0766
A29L,-0.185
K39Q,-0.112
A49V,0.0803
E44M,0.0543
S47D,0.164
T37I,0.0102
V35K,0.0383
E32K,0.0558
T48D,-0.229
S47T,0.0481
V56T,-0.431
E44C,-0.0445
A29P,-0.188
E54S,-0.0692
L31N,-0.592
R30A,0.292

# Set 4
# Target: Ras GTPase-activating protein-binding protein 1, RRM domain (G3BP1, Homo sapiens, UniProt Q13283)
# Chain of UniProt Q13283 (whole entry, looked up): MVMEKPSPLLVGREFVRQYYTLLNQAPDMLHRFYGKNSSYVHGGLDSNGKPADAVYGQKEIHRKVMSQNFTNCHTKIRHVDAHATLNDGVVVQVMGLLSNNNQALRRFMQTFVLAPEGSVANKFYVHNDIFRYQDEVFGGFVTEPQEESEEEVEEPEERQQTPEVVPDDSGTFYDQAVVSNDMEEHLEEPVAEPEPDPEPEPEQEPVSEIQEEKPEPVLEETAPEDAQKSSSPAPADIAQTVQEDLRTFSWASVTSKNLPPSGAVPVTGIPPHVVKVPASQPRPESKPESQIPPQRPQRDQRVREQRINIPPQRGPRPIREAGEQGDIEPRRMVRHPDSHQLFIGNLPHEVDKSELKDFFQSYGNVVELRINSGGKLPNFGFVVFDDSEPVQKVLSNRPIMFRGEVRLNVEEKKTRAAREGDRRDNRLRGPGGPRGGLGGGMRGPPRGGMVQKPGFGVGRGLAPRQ
# Technique: RNA Bind-n-Seq
# Form: RNA
# Matrix: in vitro
# Concentration: 1 µM
# Setting: whole 134-nt RNA, ends assumed
# Added: 150 mM KCl
# Reference: input library
# Reading: higher = stronger binding
# Constant ends, left off below: GGGAGUUCUACAGUCCGACGAUC … UGGAAUUCUCGGGUGUCAAGG
Strand,log2 enrichment
AGUCCUGUGCUACACAUCGUAUGUACCGAAUCGGUUUGGUUUUUUUGGUUUUUUUGGAAAGUAUUAUGUUACGCCGUUCGGAUCUGCACU,-0.215
GCAGGAAGUAAAAACAAAUGGAAAUGCUUCGGAUACUGGCAGGGGUGGGGGUUGCUAAGGAAAGGGUGGGAUGGGAGUGGGUAAAGAGUU,1.24
CAAGUCCUGUGCUACACAUCGUAUGUACCGAAUCGGGAAAAAGGGAGGGUUUGGGAAAGUAUUAUGUUACGCCGUUCGGAUCUGCACUUC,0.749
GCCUGGCGCUGGCCAACAAUAGCACCCUCACCAUUGGCACCAUCGAUGAGAUCCAGAAGCUGCACAUUCGCACAGUUCCCCUCUAUGAGU,0.424
AGCCGAGCGGGAACGGAACCGACAGCUGGAGCGAGAGAAACGUCGGGAGCACAGUCGGGAGAGGGACAGGGAGAGAGAGAGAGAAAGGGA,-0.263
UAACUUUAGAGGAGGAUCUGAUGGAUAUGGCAGUGGACGUGGAUUUGGGGAUGGCUAUAAUGGGUAAGGAGGAGGACCUGGAGGUGGCAA,-0.315
AAGUCCUGUGCUACACAUCGUAUGUACCGAAUCGGUUUUGGUUUUGGGGUUUUGGGAAAGUAUUAUGUUACGCCGUUCGGAUCUGCACUU,-0.265
UGGGAGGUGGAUUUUGUUUAUUUUUUUAGCUCAUUUCCAGGGGUGGUAAUUUUUUUUUAAUAUGUGUCAUGAAUAAAGUUGUUUUUGAAA,1.34
ACAGAGGGUUUGGUGGACGUUAUUCUCUAUCAUCAACCCGAUGACAAAAAGAAGAAUCGGGGGUUCUGCUUCCUUGAAUAUGAGGAUCAC,-0.293

# Set 5
# Target: Histone acetyltransferase KAT6A, both winged helices, GST fusion (KAT6A, Homo sapiens, UniProt Q92794, residues 1-181)
# Technique: protein binding microarray
# Form: double-stranded DNA, one strand shown
# Matrix: in vitro
# Concentration: not given
# Setting: 8-mer, flanks averaged, mean of 2 arrays, mostly near background
# Reference: not given
# Reading: higher = stronger binding
# Residues (chain): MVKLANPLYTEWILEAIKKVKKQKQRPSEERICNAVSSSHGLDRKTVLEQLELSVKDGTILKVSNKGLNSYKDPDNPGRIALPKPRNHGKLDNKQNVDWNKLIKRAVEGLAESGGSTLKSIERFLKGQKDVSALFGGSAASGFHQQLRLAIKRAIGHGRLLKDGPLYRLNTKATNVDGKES
Strand,E-score
AGAGTCCC,-0.0434
ACACAGCG,0.292
AGGCGCGG,0.302
CTCCCGAA,-0.134
ACCGGGTC,0.223
CGTCCAAA,0.0728
GCGTGTAC,0.199
GATAGTTA,0.0132
CAACGCCA,-0.0445
AGTTACAA,-0.0129
CCTAAAAG,-0.214
CCCGCTAA,0.233
CGTTGCAG,-0.00622
ACGCACTC,0.112
CTGGCATA,-0.106
ACGATCAC,-0.00865
ACGGTTCT,0.0417

# Set 6
# Target: RNA binding protein fox-1 homolog 2, RRM domain, GST-SBP tag (RBFOX2, Homo sapiens, UniProt O43251-10, residues 100-194)
# Technique: RNA Bind-n-Seq
# Form: RNA
# Matrix: in vitro
# Concentration: 365 nM
# Setting: natural RNA segment, single round, ends assumed
# Reference: no-protein control
# Reading: higher = stronger binding
# Constant ends, left off below: GGGAGUUCUACAGUCCGACGAUC … UGGAAUUCUCGGGUGCCAA
# Residues (chain): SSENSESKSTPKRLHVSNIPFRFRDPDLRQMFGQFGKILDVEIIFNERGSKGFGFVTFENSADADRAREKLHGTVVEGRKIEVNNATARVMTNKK
Strand,RBNS enrichment (R)
AGUCUUGCUCUGUUGCCCAGGCUGGAGUGCAGUAGCACGAUCUCGGCUCACUGCACCCUCCGUCUCUCGGGUUCAAGCAAUUGUCUGCCUCAGCCUCCCGAGUAGCUGGG,0.435
AGGUGGGUAGGAAGCUGUGAGUAUGACUUGAAGAAAAAUAUCCUUUUCAGUGACAAAUCAGAGUUUCUUACAAGUUAUUGUCCUGCUCCCUUCCAAGUUGUCUUGAAGAA,0.617
CUUGCCUUCUAUUCAGUGGACAAUCAGGAGAAGCUUCUGUAUGAGUGUACCAUCUCUGCCUCCUCUCCUUUGUACCCUGCCUUCUGGCUGUAUGGCUUACAUCCUGGAAA,0.388
GCAGGGCAUAGGGCACGCACUGGCUUAACAGUUUAGUAUAUAAGGCUCAAAUAGUCUAUACCUGAACUGCUAUAAGCAAGGUCGAUAGGGAAGUGGAUAGAUUGCUUCAG,0.578
GGUUGACAUGAUACACUAUGGCCUUAGAAAAGGGCCAGGUGAAACCCCAAGCUAAUCACUGCGGUCUUUCAGAGCCGGACAGACAGGUGCCAGCAGAGCCCGGGGCUCAC,0.448
CACAGCCUGGAGACACCCACACAGAUGGCUGGAUCCGGUGCUACGGGAAACAUUUUCCUAAGAUGCCCAUGAGAACAGACCAAGAUGUGUACAGCACUAUGAGCAUUAAA,0.337
UUUAAUUUUCUGUCUGAUGUCACAGAUCAUUGUUGCACACAAACGUGGCAUAGAAAAGAACAUGUUCAGAAGCCAUGGGGCCAAGCACAUGCGGGGACGGUCUCAAAUGC,0.682
ACAGAACAGCUGUCCAUCAGUGAGCUUGUACAGUGCUGAUUUGCAGCUCCAACAUGCGGGAUGUUCAUCCUCCUACACAGAUUCUUGUUGGGUGAAACAGAUUGUCCUAU,0.694
GUGCAGAUCUAUACUCAUUCCUUCAAAUACAUUACUCUGUUAAUCUCAAAGUGUGGCCAACUCCCAUUUACUUAGAGGCUGAUUAUCUAGUUUUGUAGUUCCUCAGGCCU,0.224
GUAUUUAUGAAUAUAUUGCUGUAAUUUCUGACAACAUCCAAAAAAUAAAAUCUUCCUAAAUUAUGUUAAGAGGAAAAUCUUUUUUAUGAUAUAAAACAAAGCCAAACAAA,0.466
UCUCUGGUGAGAGGUGGGUUUGAUGUAUCUCUGUCCUAUGCUGGUCUCUCUUCUCCUUUAUAAAAUCCUCUGUGGUCAACUGACUACUGCGUAUCGCAGUGGAAUAAGAC,0.31
CCCUCGCCCCAGGCCCGGGUCCUCCAGCGUUGAACACUUCCUUGCUUUUUUCACAUGUUUUAUGGAAUUGUUCACAUGAUUUGAAAUAAUAAAAUGUAGAAAGAAAACAC,0.391

# For quick reference, copied from above (set 3):
Variant,binding fitness [natural log]
T48V,0.0766
A29L,-0.185
K39Q,-0.112
A49V,0.0803
E44M,0.0543
S47D,0.164
T37I,0.0102
V35K,0.0383
E32K,0.0558
